Measured values gathered from unrelated publications.
Every numbered part comes from another study and shows a few of its results, in no order.

Block 1
Target: Fragile X messenger ribonucleoprotein 1, C-terminal low-complexity region (Fmr1, Mus musculus, UniProt P35922)
Method: RNA Bind-n-Seq
Form: RNA
Sample: in vitro
Tested at: 200 nM
Setting: whole 134-nt RNA, ends assumed
With: 150 mM LiCl
Reference: input library
Direction: higher = stronger binding
Each molecule: 7-deaza-guanosine replaces G
Sequence	log2 enrichment
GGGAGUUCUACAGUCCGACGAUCAGUCCUGUGCUACACAUCGUAUGUACCGAAUCAAAUUUUUAAAUUUAAAUUUUUAAAAAAGUAUUAUGUUACGCCGUUCGGAUCUGCACUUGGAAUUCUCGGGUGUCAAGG	-3.16
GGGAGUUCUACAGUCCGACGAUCAAGUCCUGUGCUACACAUCGUAUGUACCGAAUCGGAAAGGUUUUUGGAAAAAAAGGAAAGUAUUAUGUUACGCCGUUCGGAUCUGCACUUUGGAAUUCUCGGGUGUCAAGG	-2.2
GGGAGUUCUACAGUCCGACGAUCGCCGGAAGUAAAAACAAAUGGAAAUGCUUCGGAUAGUGGCAGGGGUGGGGGUUGCUAAGGAAAGGGUGGGAUGGGAGUGGGUAAAGAGUUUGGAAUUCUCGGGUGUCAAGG	2.15
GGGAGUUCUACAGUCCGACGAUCUGGAUAUGGUUAUAGAAGAAGUGGCCGAGAUAAAUAUGGCCCUCCUACUCGCACAGAGUACAGACUUAUUGUGGAGAAUUUGUCAAGUCGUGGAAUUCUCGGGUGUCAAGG	-1.97
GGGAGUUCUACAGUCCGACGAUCUCAAGUCCUGUGCUACACAUCGUAUGUACCGAAUCGGGAGGGUGGGAAAAAGGGAAAGUAUUAUGUUACGCCGUUCGGAUCUGCACUUCCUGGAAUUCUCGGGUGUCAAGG	-0.901
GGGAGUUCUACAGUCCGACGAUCACCAUGCAGGUGGGCAUCUUUGGGAAGUGGGGCAAGGGGGGGAAAAGGAGGGGGGUAACACUUUGGGAACAGGUGGUCCCAGGUCGUUUCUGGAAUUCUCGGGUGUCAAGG	1.16
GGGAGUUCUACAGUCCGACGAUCUCAAGUCCUGUGCUACACAUCGUAUGUACCGAAUCGGGUUGGGUUGGGGUUGGGGAAAGUAUUAUGUUACGCCGUUCGGAUCUGCACUUCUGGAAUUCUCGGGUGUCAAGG	-0.738
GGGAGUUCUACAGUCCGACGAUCUCAAGUCCUGUGCUACACAUCGUAUGUACCGAAUCGGAGGAAAGGUUUUUUUGGAAAGUAUUAUGUUACGCCGUUCGGAUCUGCACUUCCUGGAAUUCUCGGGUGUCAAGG	-0.34
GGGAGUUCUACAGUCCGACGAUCCCUCAAGUCCUGUGCUACACAUCGUAUGUACCGAAUCGGUGGAGGAAAAAGGAAAGUAUUAUGUUACGCCGUUCGGAUCUGCACUUCCAGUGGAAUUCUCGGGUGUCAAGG	0.659
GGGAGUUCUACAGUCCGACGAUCAGUCCUGUGCUACACAUCGUAUGUACCGAAUCGGGUUUUUGGGUUUUUGGGAAAGGGAAAGUAUUAUGUUACGCCGUUCGGAUCUGCACUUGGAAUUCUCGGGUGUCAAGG	-1.37
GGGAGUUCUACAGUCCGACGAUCAGUCCUGUGCUACACAUCGUAUGUACCGAAUCGGGUUUUUGGGGUUUUUGGUUUUUGGAAAGUAUUAUGUUACGCCGUUCGGAUCUGCACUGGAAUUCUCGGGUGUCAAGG	-1.44

Block 2
Target: Sal-like protein 4, full length isoform A (SALL4, Homo sapiens, UniProt Q9UJQ4, residues 1-1053)
Sequence of UniProt Q9UJQ4 (whole entry, looked up): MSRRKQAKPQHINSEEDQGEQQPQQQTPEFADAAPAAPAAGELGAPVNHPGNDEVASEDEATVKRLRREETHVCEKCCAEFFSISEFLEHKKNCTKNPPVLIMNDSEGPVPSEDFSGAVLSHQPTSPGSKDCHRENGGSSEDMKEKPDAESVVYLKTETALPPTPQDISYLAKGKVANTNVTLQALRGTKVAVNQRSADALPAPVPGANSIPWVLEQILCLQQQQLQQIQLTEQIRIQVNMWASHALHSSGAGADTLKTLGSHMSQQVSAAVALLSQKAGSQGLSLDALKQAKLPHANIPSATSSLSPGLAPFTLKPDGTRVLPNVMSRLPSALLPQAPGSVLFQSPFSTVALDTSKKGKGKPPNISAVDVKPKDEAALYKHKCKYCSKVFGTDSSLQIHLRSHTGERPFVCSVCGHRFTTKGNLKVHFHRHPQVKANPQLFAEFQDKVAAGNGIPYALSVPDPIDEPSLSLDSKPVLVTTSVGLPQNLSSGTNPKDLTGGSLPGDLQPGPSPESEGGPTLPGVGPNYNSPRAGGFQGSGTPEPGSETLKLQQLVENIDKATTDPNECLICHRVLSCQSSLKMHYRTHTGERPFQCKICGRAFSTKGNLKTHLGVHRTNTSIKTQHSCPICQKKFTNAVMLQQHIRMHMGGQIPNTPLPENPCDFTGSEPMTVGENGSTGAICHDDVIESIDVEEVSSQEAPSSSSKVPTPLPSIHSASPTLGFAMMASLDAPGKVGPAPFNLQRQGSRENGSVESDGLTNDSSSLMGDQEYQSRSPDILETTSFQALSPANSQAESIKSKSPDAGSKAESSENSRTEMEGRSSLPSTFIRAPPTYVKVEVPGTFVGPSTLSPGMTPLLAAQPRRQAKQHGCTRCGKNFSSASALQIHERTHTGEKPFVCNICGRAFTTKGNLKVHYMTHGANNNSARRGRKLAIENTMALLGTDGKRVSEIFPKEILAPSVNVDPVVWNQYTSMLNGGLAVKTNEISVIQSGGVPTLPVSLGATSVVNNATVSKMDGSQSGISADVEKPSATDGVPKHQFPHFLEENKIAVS
Method: universal PBM
Form: double-stranded DNA, one strand shown
Sample: in vitro
Tested at: 600 nM
Setting: 8-mer, flanks averaged, mean of replicates
Direction: higher = stronger binding
Sequence	E-score
TCGTCCCA	-0.0876
CGGACGCA	-0.219
AATTCCCT	0.132
ATTCTGTA	0.257
ACGTCTAA	0.0104
AGTTGCAA	0.0767
CTCAAAGC	0.0424
CACGCCAA	-0.0998
CATCCTAA	0.0187
AGATAGAG	0.0567
TAGGGTGA	-0.00863
GCGAGCAC	-0.238
GTCATAAC	0.253
GAGTTACC	-0.227
GCGGGCCA	-0.329
GACGGGCA	-0.219
CTCCTGAA	-0.0361
TGTGACAA	0.0531
CCCTATCA	-0.119

Block 3
Target: Histone acetyltransferase KAT6A, both winged helices, GST fusion (KAT6A, Homo sapiens, UniProt Q92794, residues 1-181)
Method: protein binding microarray
Form: double-stranded DNA, one strand shown
Sample: in vitro
Tested at: not given
Setting: 8-mer, flanks averaged, mean of 2 arrays, mostly near background
Reference: not given
Direction: higher = stronger binding
Construct (chain): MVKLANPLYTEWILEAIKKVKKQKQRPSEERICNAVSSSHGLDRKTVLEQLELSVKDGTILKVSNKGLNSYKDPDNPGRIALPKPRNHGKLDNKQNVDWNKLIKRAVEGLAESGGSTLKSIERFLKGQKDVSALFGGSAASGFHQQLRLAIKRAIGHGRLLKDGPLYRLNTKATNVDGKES
Sequence	E-score
AACGGCCA	0.192
ACGGGCCG	0.274
ACCTTTCA	-0.0931
CTGAAGCC	0.0323
CAAGGTCC	-0.12
CCGGATCA	0.0984
AATAAACG	0.159
GCTCTAAC	0.00184
GCGCTATA	0.297
GCAAATAA	0.0069
ACTACGGG	0.162
ATATCGAT	-0.0575
AGCGGTCG	0.213
ATTTTAAA	-0.0878
GATTGGAA	-0.103
CCCTGTAC	-0.152
GGAAATAA	-0.131
CGTCAAAA	0.154
CTCGACAC	0.0402
CCGGCTAA	0.216
CAATCCCA	-0.223
CTGATGAA	-0.0939
CCCATGTC	-0.0944
GGTCAGTA	0.0503
ACCAGCCT	-0.108

Block 4
Target: Centromere-binding protein 1, full length, His-tagged (CBF1, Saccharomyces cerevisiae, UniProt P17106, residues 1-351)
Sequence of UniProt P17106 (whole entry, looked up): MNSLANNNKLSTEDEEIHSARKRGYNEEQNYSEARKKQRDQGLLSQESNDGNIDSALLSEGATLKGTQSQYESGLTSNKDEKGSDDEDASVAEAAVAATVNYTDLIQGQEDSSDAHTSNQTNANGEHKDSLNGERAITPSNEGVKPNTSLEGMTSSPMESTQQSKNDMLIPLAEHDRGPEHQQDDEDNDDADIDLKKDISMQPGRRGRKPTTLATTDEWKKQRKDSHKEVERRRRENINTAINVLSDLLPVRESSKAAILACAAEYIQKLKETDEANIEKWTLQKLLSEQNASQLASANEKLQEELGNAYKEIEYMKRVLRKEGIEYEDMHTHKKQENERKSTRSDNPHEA
Method: competition protein-binding microarray
Form: double-stranded DNA, one strand shown
Sample: in vitro
Tested at: 2 µM
Setting: whole 60-bp probe, lowest competitor level
With: Pho4 competitor, 0.05 µM
Direction: higher = stronger binding
Sequence	fluorescence intensity
TCTCGGTTGTTCAAGGTCGTGCTAACCATATGGCATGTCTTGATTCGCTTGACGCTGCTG	67 a.u.
CGTCCTAGTGATTGGTAAGTGGGTGCCATGAGGAAGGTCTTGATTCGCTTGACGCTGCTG	92.8 a.u.
CCAGACACATCCCATTGCATGACGCAAGTGTGGGAGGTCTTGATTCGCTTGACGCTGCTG	61 a.u.
TGCGCAACAACTTGCCGGGTGGGTGTATGTCTAGAAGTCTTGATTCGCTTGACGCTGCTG	56 a.u.
GTAGACCTTGATGTCCATGTGGAAAGCCAAAGCCATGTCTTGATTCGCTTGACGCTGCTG	99.7 a.u.
CTTCTGTAAATTTGCGTAGTGGGTGGACGCGCCCCGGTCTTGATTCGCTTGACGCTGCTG	79.7 a.u.
AGAAAATCATATCACCACGTGGACCTCTCAAAGACTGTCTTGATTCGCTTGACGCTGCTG	1110 a.u.
GCAGCACAATCTCCCGTAGAATTATCAAGAATGTTTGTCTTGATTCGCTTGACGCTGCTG	74 a.u.
TGTGGCGATAAGTCCCACGTGAAGGTACAACTTCTCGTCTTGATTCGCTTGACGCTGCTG	674 a.u.
ATATGCTTTTGTTCGCATGTGGTGTTATTCCAGTTGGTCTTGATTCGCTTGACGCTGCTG	147 a.u.
CGGGGTTAAGTTTGGATTGTGGGTGGCTTGCAGCAGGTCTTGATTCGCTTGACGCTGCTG	65.1 a.u.
CGGGGTTAAGTTTGACACGTGGGTGGCTTGCAGCAGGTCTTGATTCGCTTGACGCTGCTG	827 a.u.
CTTGGATGGATAGGACACGTGACGGCTTGAATGTAGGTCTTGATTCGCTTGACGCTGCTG	6450 a.u.
CTTCTGTAAATTTGGGACGTGGGTGGACGCGCCCCGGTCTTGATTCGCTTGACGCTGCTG	92.2 a.u.
CGTCCTAGCGATTGACTCGTGGGTGCCATGAGGAAGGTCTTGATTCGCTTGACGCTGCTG	85.7 a.u.
CTAACGAAGGTTTGCGTGGTGGGTGACAAGCCAAGTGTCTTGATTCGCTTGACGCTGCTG	66.8 a.u.
GTCTTGTCTCATTGCTGAGTGGGTGTCCCCACTTCAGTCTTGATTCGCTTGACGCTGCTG	84.6 a.u.
GTCTTGTCTCATTGGCTGGTGGGTGTCCCCACTTCAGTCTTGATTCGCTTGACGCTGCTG	79.7 a.u.
CGGGGTTAAGTTTGCGTTGTGGGTGGCTTGCAGCAGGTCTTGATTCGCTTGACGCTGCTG	93.6 a.u.
AAATTACTAAGTTGATGAGTGGGTGACGCCGTATGAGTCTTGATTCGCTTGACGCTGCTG	71.6 a.u.
AAATTACTAAGTTGGGGAGTGGGTGACGCCGTATGAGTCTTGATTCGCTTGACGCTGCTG	57.4 a.u.

Block 5
Target: Interferon regulatory factor 7, full length, phosphomimetic (IRF7, Homo sapiens, UniProt Q92985, residues 1-503, S101K/S471D/S472D/S475D/S476D/S477D/S483D/S484D/S487D)
Method: protein-binding microarray
Form: double-stranded DNA, one strand shown
Sample: in vitro
Tested at: 250 nM
Setting: 60-bp whole probe
With: salmon DNA 0.4 mg/ml
Reference: random background probes
Direction: higher = stronger binding
Shared flanks, not repeated: GCCTAGCAC … GTCTTGATTCGCTTGACGCTGCTG
Construct (chain): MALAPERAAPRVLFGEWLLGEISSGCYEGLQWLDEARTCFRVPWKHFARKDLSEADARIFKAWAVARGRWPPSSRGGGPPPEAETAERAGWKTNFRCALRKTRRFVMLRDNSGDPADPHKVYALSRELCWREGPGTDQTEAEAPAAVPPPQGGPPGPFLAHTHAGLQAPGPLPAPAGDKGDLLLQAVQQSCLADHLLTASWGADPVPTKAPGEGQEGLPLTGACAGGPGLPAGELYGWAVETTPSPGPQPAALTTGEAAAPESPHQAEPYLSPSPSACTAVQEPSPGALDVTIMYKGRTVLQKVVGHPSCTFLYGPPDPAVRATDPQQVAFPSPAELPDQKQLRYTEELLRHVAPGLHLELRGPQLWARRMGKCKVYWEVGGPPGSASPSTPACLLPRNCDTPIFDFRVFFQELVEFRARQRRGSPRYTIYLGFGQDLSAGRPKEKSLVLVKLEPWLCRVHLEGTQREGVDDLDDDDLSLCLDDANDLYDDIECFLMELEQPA
Sequence	log fluorescence [z-score]
GATGGTCTCCTTTTCCTGACGTGCTAG	1.41
TTCAATTCCTGAAATCTCTTTGTGCTA	0.427
GACGATCTTAGTTTCGAGACGTGCTAG	4.82
TTAGGTTTCCTTTCCCTTTAGTGCTAG	4.76
GGCGGACTGCTTTTCCTGACGTGCTAG	-0.295
TTAGGTTCCCTTTTCCTTTGGTGCTAG	3.86
TCATGGCTGACTTTGGAACTGTGCTAG	-0.68
GACGGTCTCCTTATCCTCACGTGCTAG	0.261
TCAGCTTCCCAATTCTCACTGTGCTAG	0.912
TCATGCATCTATCTTAAACTGTGCTAG	-0.132
TTAGGACCGGGTTTCGGTTAGTGCTAG	8.49
CAAGTTTCTCCTTTCGGAATGTGCTAG	4.97
GACGGTATCGGGTGTCGGGACGTGCTA	-0.322
GACGAACTGGACTATCGGGACGTGCTA	-0.652
GACAGTTTCGGTATCGGGACGTGCTAG	9.8
TTTTCATTGTTTTTCATCATGTGCTAG	1.87
TCTAATTAGAATTTAAAACAGTGCTAG	0.621
AGAAACTTGTGTTTGTCCCTGTGCTAG	-0.144
TTAGGTCTCCTTTTCCTATAGTGCTAG	2.18
GACGGTGTCGACTATCGGGACGTGCTA	-0.589
GACGGTATCGACACTGGGCACGTGCTA	-0.661
TATGTTCACTATTTAAGACCGTGCTAG	1.18
TCATCACTCAATCTCAAACTGTGCTAG	0.123

Some of these lines once more (block 3):
Sequence	E-score
GCTCTAAC	0.00184
AACGGCCA	0.192
CTGATGAA	-0.0939
ACGGGCCG	0.274
GGAAATAA	-0.131
CAAGGTCC	-0.12
ATATCGAT	-0.0575
CAATCCCA	-0.223
CCGGCTAA	0.216
GCGCTATA	0.297
ACTACGGG	0.162
ACCAGCCT	-0.108
GATTGGAA	-0.103
GGTCAGTA	0.0503
ATTTTAAA	-0.0878
ACCTTTCA	-0.0931
